Experimental data of several laboratories.
Lines come from different studies, so protocols differ.
Organism: Escherichia coli

SMILES | test | test system | setting | MIC
CCc1ccccc1N/N=C/c1c2c(O)c3c(O)c(C)c4c(c3c1O)C(=O)[C@@](C)(O/C=C/[C@H](OC)[C@H](C)[C@@H](OC(C)=O)[C@H](C)[C@H](O)[C@H](C)[C@@H](O)[C@@H](C)/C=C/C=C(\C)C(=O)N2)O4 |  | ATCC 25922 |  | 20 µM
O=C1CN(/N=C/c2ccc([N+](=O)[O-])o2)C(=O)N1 | broth microdilution |  | 18 h | 8 µg/mL
CCOC(=O)CCC(=O)O[C@H]1[C@H](O[C@@H]2[C@@H](C)[C@H](O[C@H]3C[C@@](C)(OC)[C@@H](O)[C@H](C)O3)[C@@H](C)C(=O)O[C@H](CC)[C@@](C)(O)[C@H](O)[C@@H](C)C(=O)[C@H](C)C[C@@]2(C)O)O[C@H](C)C[C@@H]1N(C)C |  | ATCC 25922 |  | 160 µM
C=C/C=C(\C)CC[C@H]1C[C@H](O)CC(=O)O1 | broth microdilution | KCTC 2571 | 37 °C, Mueller-Hinton broth | 128 µg/mL
CC1CCC(C(C)C)C(OC2=C(Cl)C(=O)c3ccccc3C2=O)C1 (stereo not drawn) | broth microdilution | MTCC 405 |  | 12 µg/mL
C/C(=N/NC(=O)c1cn(-c2ccccc2)nc1-c1ccc(Cl)cc1)c1c(O)cc(C)oc1=O |  | DH5α |  | 300 µg/mL
CC[C@H]1OC(=O)[C@H](C)[C@@H](O[C@H]2C[C@@](C)(OC)[C@@H](O)[C@H](C)O2)[C@H](C)[C@@H](O[C@@H]2O[C@H](C)C[C@H](N(C)C)[C@H]2O)[C@](C)(O)C[C@@H](C)CN(C)[C@H](C)[C@@H](O)[C@]1(C)O | checkerboard broth microdilution | Mueller-Hinton II broth | compound alone | 8 µM
Cc1c(CN(C)C(=O)/C=C/c2cnc3c(c2)CC(CCN)C(=O)N3)oc2ccccc12.Cl (stereo not drawn) | broth microdilution | AR-0346 |  | 4 µg/mL
N=C(N)c1ccc(OCCC(CCOc2ccc(C(=N)N)cc2)c2ccccc2)cc1 (stereo not drawn) |  | BW25113 | compound alone, rifampicin checkerboard | > 200 µg/mL
C[C@@H](O)[C@H]1C(=O)N2C(C(=O)O)=C(S[C@@H]3CN[C@H](C(=O)N(C)C)C3)[C@H](C)[C@H]12 |  | ATCC 25922 |  | 0.31 µM
CC(C)(O/N=C(\C(=O)N[C@@H]1C(=O)N2C(C(=O)[O-])=C(C[N+]3(CCNC(=O)c4ccc(O)c(O)c4Cl)CCCC3)CS[C@H]12)c1csc(N)n1)C(=O)O |  | DSM 1116 |  | 0.1 µM
CCO/N=C(\C(=O)N[C@@H]1C(=O)N2C(C(=O)[O-])=C(Sc3nc(-c4cc[n+](C)cc4)cs3)CS[C@H]12)c1nsc(NP(=O)(O)O)n1 | broth microdilution |  | 24 h, 37 °C, clinical isolate | > 400 µM
CO[C@H]1/C=C/O[C@@]2(C)Oc3c(C)c(O)c4c(O)c(c(/C=N/N5CCN(C)CC5)c(O)c4c3C2=O)NC(=O)/C(C)=C\C=C\[C@H](C)[C@H](O)[C@@H](C)[C@@H](O)[C@@H](C)[C@H](OC(C)=O)[C@@H]1C | broth microdilution OD600 | Mueller-Hinton broth | 24 h, 37 °C, added: 6 µM NH4Cl | 16 µM
CN[C@@H]1[C@H](O[C@H]2[C@H](O[C@H]3[C@H](O)[C@@H](O)[C@H](N=C(N)N)[C@@H](O)[C@@H]3N=C(N)N)O[C@@H](C)[C@]2(O)C=O)O[C@@H](CO)[C@H](O)[C@H]1O | broth microdilution | G92 | 18 h | 64 µg/mL
N=C(N)c1ccc(OCCCCCCCCCOc2ccc(C(=N)N)cc2)cc1 |  | BW25113 | compound alone, rifampicin checkerboard | > 25 µg/mL
CO[C@H]1/C=C/O[C@@]2(C)Oc3c(C)c(O)c4c(O)c(c(/C=N/Nc5cccc(Cl)c5)c(O)c4c3C2=O)NC(=O)/C(C)=C/C=C/[C@H](C)[C@H](O)[C@@H](C)[C@@H](O)[C@@H](C)[C@H](OC(C)=O)[C@H]1C |  | ATCC 25922 |  | 20 µM
c1ccc(OCCn2c(CNCC34CC5CC(CC(C5)C3)C4)nc3ccccc32)cc1 |  | ATCC 25922 |  | > 128 µg/mL
COc1cc(Cc2cnc(N)nc2N)cc(OC)c1OC |  | ATCC 25922 |  | 5 µM
N=C(N)c1ccc(OCc2cccc(COc3ccc(C(=N)N)cc3)c2)cc1 |  | mcr-3 polymyxin-resistant | compound alone | > 200 µg/mL
CC1(C)SC2C(NC(=O)C(NC(=O)C3=C(O)C(c4ccccc4)NC3=O)c3ccccc3)C(=O)N2C1C(=O)O (stereo not drawn) | broth microdilution | BW25113 wild type | 18 h | 25 µg/mL
Cc1c(CN(C)C(=O)/C=C/c2cnc3c(c2)CC(NC(=O)OC(C)(C)C)C(=O)N3)oc2ccccc12 (stereo not drawn) | broth microdilution | AR-0085 |  | > 32 µg/mL
CO/N=C(\C(=O)N[C@@H]1C(=O)N2C(C(=O)O)=C(CSc3nc(=O)c(O)nn3C)CS[C@H]12)c1csc(N)n1 | broth microdilution | G92 | 18 h | 128 µg/mL
CN(C)c1ccc(O)c2c1C[C@H]1C[C@H]3[C@H](N(C)C)C(O)=C(C(N)=O)C(=O)[C@@]3(O)C(O)=C1C2=O | broth microdilution | ATCC 25922 | 5% CO2 | 0.25 µg/mL

SMILES | test | test system | setting | MIC
CC[C@H](C)[C@H](NC(=O)[C@H](CCCCN)NC(=O)[C@H](CCC(=O)O)NC(=O)CNC(=O)CNC(=O)[C@H](CCCCN)NC(=O)[C@H](CCCNC(=N)N)NC(=O)[C@H](CC(C)C)NC(=O)[C@H](CC(C)C)NC(=O)CN)C(=O)NCC(=O)N[C@@H](CCC(=O)O)C(=O)N[C@@H](CCCCN)C(=O)N[C@@H](CC(C)C)C(=O)N[C@@H](CCCCN)C(=O)N[C@@H](CCCCN)C(=O)N[C@H](C(=O)NCC(=O)N[C@@H](CCC(N)=O)C(=O)N[C@@H](CCCCN)C(=O)N[C@H](C(=O)N[C@@H](CCCCN)C(=O)N[C@@H](CC(N)=O)C(=O)N[C@@H](Cc1ccccc1)C(=O)N[C@@H](Cc1ccccc1)C(=O)N[C@@H](CCC(N)=O)C(=O)N[C@@H](CCCCN)C(=O)N[C@@H](CC(C)C)C(=O)N[C@H](C(=O)N1CCC[C@H]1C(=O)N[C@@H](CCC(N)=O)C(=O)N1CCC[C@H]1C(=O)N[C@@H](CCC(=O)O)C(=O)N[C@@H](CCC(N)=O)C(=O)O)C(C)C)[C@@H](C)CC)[C@@H](C)CC | broth microdilution | ATCC 25922 | 16 h, 37 °C, cation-adjusted Mueller-Hinton broth | 128 µg/mL
CC[C@H](C)[C@H](NC(=O)[C@H](C)NC(=O)CNC(=O)[C@H](C)NC(=O)[C@H](CCCCN)NC(=O)[C@H](CO)NC(=O)[C@H](C)NC(=O)[C@H](CCSC)NC(=O)CN)C(=O)N[C@@H](C)C(=O)NCC(=O)N[C@@H](CCCCN)C(=O)N[C@H](C(=O)N[C@@H](C)C(=O)N[C@@H](CCCCN)C(=O)N[C@H](C(=O)N[C@@H](C)C(=O)N[C@@H](CC(C)C)C(=O)N[C@@H](CCCCN)C(=O)N[C@@H](C)C(=O)N[C@@H](CC(C)C)C(=O)O)C(C)C)[C@@H](C)CC | broth dilution | K12 BW25113 | 18 h, 37 °C | 38.1 µM
CC[C@H]1OC(=O)C[C@@H](O)[C@H](C)[C@@H](O[C@@H]2O[C@H](C)[C@@H](O[C@H]3C[C@@](C)(O)[C@@H](O)[C@H](C)O3)[C@H](N(C)C)[C@H]2O)[C@@H](CC=O)C[C@@H](C)C(=O)/C=C/C(C)=C/[C@@H]1CO[C@@H]1O[C@H](C)[C@@H](O)[C@@H](OC)[C@H]1OC |  | ATCC 25922 |  | 320 µM
O=C(Cc1ccccc1)N[C@@H]1C(=O)N2C(C(=O)O)=C(CSc3cccc4cccnc34)CS(=O)(=O)[C@H]12 |  | 2018-015 |  | > 128 µg/mL
N=C(N)c1ccc(OCc2cc(Br)cc(COc3ccc(C(=N)N)cc3)c2)cc1 |  | 552100 | compound alone | 100 µg/mL
O=C(O)c1cn(C2CC2)c2cc(N3CCNCC3)c(F)cc2c1=O |  | tetracycline-resistant (pBR322) |  | 0.5 µM
NC[C@H]1O[C@H](O[C@H]2[C@H](O)[C@@H](O[C@H]3O[C@H](CO)[C@@H](O)[C@H](N)[C@H]3O)[C@H](N)C[C@@H]2N)[C@H](O)[C@@H](O)[C@@H]1O | broth microdilution | G92 | 18 h | 512 µg/mL
CC(C)Oc1c(NC(=O)c2ccc(NC(=O)[C@H](CC(N)=O)NC(=O)c3ccc(NC(=O)c4ccc(C#N)cc4)cc3)cc2)ccc(C(=O)N/N=C/c2c(F)cc(C(=O)O)cc2F)c1O |  | BW25113 | 18 h, 37 °C, irradiated at 365 nm, photostationary state | 0.61 µg/mL
NCC[C@H](O)C(=O)N[C@@H]1C[C@H](N)[C@@H](O[C@H]2O[C@H](CN)[C@@H](O)[C@H](O)[C@H]2O)[C@H](O)[C@H]1O[C@H]1O[C@H](CO)[C@@H](O)[C@H](N)[C@H]1O | broth microdilution | ATCC 25922 | 5% CO2 | 8 µg/mL
N=C(N)c1ccc(OCCSCCOc2ccc(C(=N)N)cc2)cc1 |  | BW25113 | compound alone, rifampicin checkerboard | > 200 µg/mL
O=C(Cc1ccccc1)N[C@@H]1C(=O)N2C(C(=O)O)=C(CSc3cccc4cccnc34)CS[C@H]12 |  | 2018-015 |  | > 128 µg/mL
OC(Cn1cncn1)(Cn1cncn1)c1ccc(F)cc1F |  | drug-resistant clinical isolate, MHB | 24 h, 37 °C | 128 µM
CC(C)Oc1c(NC(=O)c2ccc(NC(=O)[C@H](CC(N)=O)NC(=O)c3cc(F)c(/N=N/c4c(F)cccc4F)c(F)c3)cc2)ccc(C(=O)N/N=C/c2ccc(C(=O)O)s2)c1O |  | BW25113 | after 1 h irradiation at 450 nm | > 6.4 µg/mL
CN(C)c1ccc2nc3ccc(=[N+](C)C)cc-3sc2c1 |  | ATCC 25922 | 18 h, 37 °C, dark | > 128 µM
Cc1cc(-c2cn[nH]c2-c2cccc(OCc3cccc(C#N)c3)c2)cc(C)n1 | broth microdilution | ATCC 25922 |  | 1 µg/mL
CO[C@H]1/C=C/O[C@@]2(C)Oc3c(C)c(OC(=O)c4ccco4)c4c(c3C2=O)C(=O)C(C2CC(C)OC(C)C2)=C(NC(=O)/C(C)=C/C=C/[C@H](C)[C@H](O)[C@@H](C)[C@@H](O)[C@@H](C)[C@H](OC(C)=O)[C@H]1C)C4=O (stereo partly drawn) |  | ATCC 25922 |  | 20 µM
N=C(N)c1ccc(OCc2ccc(-c3ccccc3)cc2COc2ccc(C(=N)N)cc2)cc1 |  | mcr-3 polymyxin-resistant | compound alone | > 100 µg/mL
CN[C@@H]1[C@@H](O[C@H]2O[C@H](CO)[C@@H](N)[C@H](O)[C@H]2O)OC2C[C@@H](N)[C@@H](O[C@H]3[C@H](O)[C@@H](O)[C@H](N)C[C@@H]3N)OC2[C@@H]1O (stereo partly drawn) | broth microdilution | ATCC 25922 | 5% CO2 | 16 µg/mL
CC(=O)Nc1ccc(/C=N/NC(=O)c2ccc(NC(=O)c3ccc(N4C(=O)C[C@H](NC(=O)c5ccc(NC(=O)c6ccc(C#N)cc6)cc5)C4=O)cc3)c(OC(C)C)c2O)cc1 |  | BW25113 | 18 h, 37 °C, irradiated at 365 nm, photostationary state | 0.1 µg/mL
CC[C@H](C)CCCCC(=O)N[C@@H](CCN)C(=O)N[C@H](C(=O)N[C@@H](CCN)C(=O)N[C@H]1CCNC(=O)[C@H]([C@@H](C)O)NC(=O)[C@H](CCN)NC(=O)[C@H](CCN)NC(=O)[C@H](CC(C)C)NC(=O)[C@@H](CC(C)C)NC(=O)[C@H](CCN)NC1=O)[C@@H](C)O | broth microdilution | ATCC 25922 | 18 to 20 h | 0.5 µg/mL
CO[C@H]1/C=C/O[C@@]2(C)Oc3c(C)c(O)c4c(c3C2=O)C(=O)C(N2CCN(c3cc(C)nc5ccccc35)CC2)=C(NC(=O)/C(C)=C/C=C/[C@H](C)[C@H](O)[C@@H](C)[C@@H](O)[C@@H](C)[C@H](OC(C)=O)[C@H]1C)C4=O |  | ATCC 25922 |  | 20 µM
CC(C)(CN)CNCc1nc2ccccc2n1CCOc1ccccc1 |  | ATCC 25922 |  | 64 µg/mL
